Measurements of several laboratories.
Each numbered part is a random draw from the data of one study; scales do not carry over between parts. Positions count from the first letter of the parent shown.

Series 1
Target: ABI1, truncated, D143A, DHFR fusion (Arabidopsis thaliana)
Technique: DHFR PCA, deep sequencing
Sample: yeast
Notes: methotrexate growth selection, single substitutions
Added: (+)-ABA 2500 µM
Relative to: wild-type fitted maximum
Direction: higher = stronger binding
Parent: PYL1, truncated, DHFR fusion (Arabidopsis thaliana); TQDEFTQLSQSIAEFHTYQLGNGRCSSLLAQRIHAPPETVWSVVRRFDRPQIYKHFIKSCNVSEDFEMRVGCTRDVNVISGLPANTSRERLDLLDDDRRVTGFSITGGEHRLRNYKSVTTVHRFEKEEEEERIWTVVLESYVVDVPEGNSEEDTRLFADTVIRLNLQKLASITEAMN
Variant | relative binding score [%]
L28S | 78.8
R88D | 84.4
L29A | 92.8
T135Q | -4.51
W134N | 110
D153T | 75.7
Q19F | 96.8
R123P | 98.8
V143H | 29.2
N85Y | 94
E147P | 94.4
E131P | 103
E139T | 102
T160G | 86.3
S104H | 91.2
Q31K | 102
E89G | 8.08
I105F | 39.9
S9L | 94.1
E128L | 102
P37R | 82.4

Series 2
Target: Ras GTPase-activating protein-binding protein 1, full length (G3BP1, Homo sapiens, UniProt Q13283)
Chain of UniProt Q13283 (whole entry, looked up): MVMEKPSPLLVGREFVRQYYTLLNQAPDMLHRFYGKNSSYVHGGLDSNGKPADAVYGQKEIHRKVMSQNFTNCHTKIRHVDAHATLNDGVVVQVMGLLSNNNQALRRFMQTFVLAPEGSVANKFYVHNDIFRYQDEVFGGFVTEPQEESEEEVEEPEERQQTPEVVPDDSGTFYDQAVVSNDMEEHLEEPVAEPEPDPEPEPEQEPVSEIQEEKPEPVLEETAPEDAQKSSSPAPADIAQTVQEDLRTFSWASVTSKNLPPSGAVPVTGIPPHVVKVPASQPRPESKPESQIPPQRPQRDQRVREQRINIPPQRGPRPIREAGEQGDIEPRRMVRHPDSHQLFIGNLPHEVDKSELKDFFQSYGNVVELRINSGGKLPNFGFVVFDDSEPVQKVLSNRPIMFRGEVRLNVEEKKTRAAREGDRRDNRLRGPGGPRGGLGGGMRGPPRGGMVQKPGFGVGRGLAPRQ
Technique: RNA Bind-n-Seq
Form: RNA
Sample: in vitro
Concentration: 200 nM
Notes: whole 134-nt RNA, ends assumed
Added: 150 mM LiCl
Relative to: input library
Direction: higher = stronger binding
All molecules: 7-deaza-guanosine replaces G
Shared flanks, not repeated: GGGAGUUCUACAGUCCGACGAUC … UGGAAUUCUCGGGUGUCAAGG
Strand | log2 enrichment
UUCUUUGCCCAACGGGGCCGUGGAUACCUGCCUUUUAAUUCUUUUUUAUUCGCCCAUCGGGGCCGCGGAUACCUGCUUUUUAUUUUUUUU | 1.13
UCCUGUGCUACACAUCGUAUGUACCGAAUCGGGAAAAAAAGGGAAAAAGGGAAAAAGGGAAAGUAUUAUGUUACGCCGUUCGGAUCUGCA | 0.355
GCAGGAAGUAAAAACAAAUGGAAAUGCUUCGGAUAGUGGCAGGGGUGGUGGUUGCUAAGGAAAGGGUGGGAUGGGAGUGGGUAAAGAGUU | 0.223
UUGGGUCCAGACUGCGCCACAGCCUCUCGGGAGACGUGGGCCCUCGGAACCUUUUUAGUGCCGGACUCCGGGCCGCAGGCAGUCCCGCGG | -1.78
CCUCAAGUCCUGUGCUACACAUCGUAUGUACCGAAUCGGAAGGAAGGGAAGGAAAGUAUUAUGUUACGCCGUUCGGAUCUGCACUUCCAG | -0.167
GUCCUGUGCUACACAUCGUAUGUACCGAAUCAAAUUUAAACCCCCAAAUUUUUUUAAAAAAGUAUUAUGUUACGCCGUUCGGAUCUGCAC | 0.581
AGUCCUGUGCUACACAUCGUAUGUACCGAAUCGGAAAAAAAGGAAAGGUUUUUUUGGAAAGUAUUAUGUUACGCCGUUCGGAUCUGCACU | -2.46
UCCUCAAGUCCUGUGCUACACAUCGUAUGUACCGAAUCGGAGGGAGGAGGGAAAGUAUUAUGUUACGCCGUUCGGAUCUGCACUUCCAGC | -0.438

Series 3
Target: Prothrombin, mature alpha-thrombin (F2, Homo sapiens, UniProt P00734)
Technique: aptamer microarray, sandwich
Form: DNA with 2'F-ANA
Sample: in vitro
Concentration: 200 nM
Notes: whole 15-mer aptamer, many near background
Added: Cy3 exosite-II aptamer, 400 nM
Direction: higher = stronger binding
Strand: GGTTGGTGTGGTTGG
Modification | mean fluorescence intensity
2'F-ANA at 2 4 7 10 11 13 | 113 a.u.
2'F-ANA at 1 3 7 8 10 12 14 15 | 69.7 a.u.
2'F-ANA at 1 4 8 9 10 12 13 14 | 49.4 a.u.
2'F-ANA at 1 2 6 9 10 11 12 13 15 | 60.7 a.u.
2'F-ANA at 1 5 6 8 14 | 47.9 a.u.
2'F-ANA at 4 6 11 12 13 14 | 94.1 a.u.
2'F-ANA at 3 7 8 9 11 13 14 | 587 a.u.
2'F-ANA at 2 7 8 10 | 168 a.u.
2'F-ANA at 1 3 6 7 13 14 15 | 81 a.u.
2'F-ANA at 1 3 7 12 13 15 | 521 a.u.
2'F-ANA at 2 5 6 8 10 11 12 | 52.6 a.u.
2'F-ANA at 3 5 7 8 12 14 | 80.2 a.u.
2'F-ANA at 3 8 9 14 | 698 a.u.
2'F-ANA at 6 10 13 15 | 136 a.u.
2'F-ANA at 1 2 3 10 11 13 14 15 | 149 a.u.
2'F-ANA at 1 4 5 6 7 8 9 11 13 | 62.9 a.u.
2'F-ANA at 3 4 8 10 13 | 235 a.u.
2'F-ANA at 1 4 5 7 8 9 14 15 | 121 a.u.
2'F-ANA at 2 4 8 10 11 14 15 | 59.3 a.u.
2'F-ANA at 1 2 8 10 12 | 70.4 a.u.
2'F-ANA at 4 11 12 14 | 132 a.u.
2'F-ANA at 2 4 5 7 9 13 14 15 | 44.1 a.u.
2'F-ANA at 1 3 6 7 8 11 | 296 a.u.

Series 4
Target: Histone acetyltransferase KAT6A, winged helix 1, GST fusion (KAT6A, Homo sapiens, UniProt Q92794, residues 1-85)
Technique: protein binding microarray
Form: double-stranded DNA, one strand shown
Sample: in vitro
Concentration: not given
Notes: 8-mer, flanks averaged, mean of 2 arrays, mostly near background
Relative to: not given
Direction: higher = stronger binding
Residues (chain): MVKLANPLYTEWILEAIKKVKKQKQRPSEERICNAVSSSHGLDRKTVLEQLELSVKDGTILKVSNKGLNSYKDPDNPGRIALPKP
Strand | E-score
AACTCGCC | 0.0661
AATCATAG | -0.176
GGCGGAGA | 0.293
TACCAGAA | -0.0809
CTTCAAGC | -0.0472
ATACGTGG | -0.0971
GATGGAGA | -0.145
TGCCAACA | -0.273
TGGAACCA | -0.0376
ACTGTTGA | -0.142
GAGCTTCC | 0.0654
ACCATTAA | -0.0656
ATCCATCG | -0.0304
CCCGACAC | 0.0847
GGGTTGCA | -0.0369
GGATACGA | -0.151
CACCATAC | 0.0539
CTGCGTCC | 0.0796
AGCGTCAG | -0.129
ACCGTCAG | 0.1
GTCTAGAA | 0.0191
AATCCCGA | 0.14
ACGACATC | -0.0337

Some of these lines once more (series 3):
Modification | mean fluorescence intensity
2'F-ANA at 4 6 11 12 13 14 | 94.1 a.u.
2'F-ANA at 3 7 8 9 11 13 14 | 587 a.u.
2'F-ANA at 2 7 8 10 | 168 a.u.
2'F-ANA at 1 3 6 7 13 14 15 | 81 a.u.
2'F-ANA at 1 3 7 12 13 15 | 521 a.u.
2'F-ANA at 2 5 6 8 10 11 12 | 52.6 a.u.
2'F-ANA at 3 5 7 8 12 14 | 80.2 a.u.
2'F-ANA at 3 8 9 14 | 698 a.u.
